# Experimental data gathered from unrelated publications.
# A part holds a random share of what one study measured.
# Chain of UniProt Q9FKM7 (whole entry, looked up): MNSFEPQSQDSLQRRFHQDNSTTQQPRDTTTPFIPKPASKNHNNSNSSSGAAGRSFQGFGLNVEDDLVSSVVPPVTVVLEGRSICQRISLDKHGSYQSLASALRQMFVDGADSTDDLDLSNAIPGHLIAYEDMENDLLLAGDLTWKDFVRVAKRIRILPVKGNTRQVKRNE
# Chain of UniProt Q8H174 (whole entry, looked up): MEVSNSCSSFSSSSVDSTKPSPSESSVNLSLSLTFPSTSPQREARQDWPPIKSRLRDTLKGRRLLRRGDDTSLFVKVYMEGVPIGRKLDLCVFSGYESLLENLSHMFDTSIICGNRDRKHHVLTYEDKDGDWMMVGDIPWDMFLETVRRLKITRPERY
# Chain of UniProt Q9C5W9 (whole entry, looked up): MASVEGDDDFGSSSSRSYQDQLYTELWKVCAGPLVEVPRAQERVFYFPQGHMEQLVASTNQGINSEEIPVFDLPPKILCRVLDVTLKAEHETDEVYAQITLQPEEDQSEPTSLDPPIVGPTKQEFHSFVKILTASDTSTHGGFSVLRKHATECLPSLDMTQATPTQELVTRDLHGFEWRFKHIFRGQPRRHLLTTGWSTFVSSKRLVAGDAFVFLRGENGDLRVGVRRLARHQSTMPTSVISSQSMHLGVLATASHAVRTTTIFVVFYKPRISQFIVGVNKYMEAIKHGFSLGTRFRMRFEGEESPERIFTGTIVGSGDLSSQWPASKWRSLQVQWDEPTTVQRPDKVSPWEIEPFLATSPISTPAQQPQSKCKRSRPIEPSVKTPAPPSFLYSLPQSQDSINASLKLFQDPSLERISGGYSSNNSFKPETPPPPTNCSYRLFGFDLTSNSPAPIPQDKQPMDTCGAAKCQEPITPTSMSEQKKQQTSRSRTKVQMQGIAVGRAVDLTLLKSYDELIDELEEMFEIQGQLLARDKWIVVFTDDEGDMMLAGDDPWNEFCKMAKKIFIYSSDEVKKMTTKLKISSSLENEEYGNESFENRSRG
# Chain of UniProt Q93YR9 (whole entry, looked up): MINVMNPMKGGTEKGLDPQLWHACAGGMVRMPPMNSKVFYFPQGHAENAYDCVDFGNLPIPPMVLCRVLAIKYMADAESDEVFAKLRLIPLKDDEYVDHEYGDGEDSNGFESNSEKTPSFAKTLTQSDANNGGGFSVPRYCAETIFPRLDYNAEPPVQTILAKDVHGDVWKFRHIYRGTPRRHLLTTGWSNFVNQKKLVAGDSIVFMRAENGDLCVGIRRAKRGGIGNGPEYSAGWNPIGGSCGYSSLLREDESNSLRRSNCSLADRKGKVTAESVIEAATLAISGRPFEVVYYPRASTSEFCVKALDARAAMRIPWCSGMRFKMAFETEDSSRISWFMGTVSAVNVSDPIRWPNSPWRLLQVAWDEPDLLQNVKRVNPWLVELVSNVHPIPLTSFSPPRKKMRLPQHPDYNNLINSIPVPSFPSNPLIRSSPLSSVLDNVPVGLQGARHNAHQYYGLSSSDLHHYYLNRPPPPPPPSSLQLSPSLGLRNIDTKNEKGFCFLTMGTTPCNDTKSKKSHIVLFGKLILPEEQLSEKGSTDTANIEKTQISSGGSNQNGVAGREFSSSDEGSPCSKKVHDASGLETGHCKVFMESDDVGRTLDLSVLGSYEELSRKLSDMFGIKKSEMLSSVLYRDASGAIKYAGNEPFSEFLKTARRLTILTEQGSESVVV
# Chain of UniProt Q8RYC8 (whole entry, looked up): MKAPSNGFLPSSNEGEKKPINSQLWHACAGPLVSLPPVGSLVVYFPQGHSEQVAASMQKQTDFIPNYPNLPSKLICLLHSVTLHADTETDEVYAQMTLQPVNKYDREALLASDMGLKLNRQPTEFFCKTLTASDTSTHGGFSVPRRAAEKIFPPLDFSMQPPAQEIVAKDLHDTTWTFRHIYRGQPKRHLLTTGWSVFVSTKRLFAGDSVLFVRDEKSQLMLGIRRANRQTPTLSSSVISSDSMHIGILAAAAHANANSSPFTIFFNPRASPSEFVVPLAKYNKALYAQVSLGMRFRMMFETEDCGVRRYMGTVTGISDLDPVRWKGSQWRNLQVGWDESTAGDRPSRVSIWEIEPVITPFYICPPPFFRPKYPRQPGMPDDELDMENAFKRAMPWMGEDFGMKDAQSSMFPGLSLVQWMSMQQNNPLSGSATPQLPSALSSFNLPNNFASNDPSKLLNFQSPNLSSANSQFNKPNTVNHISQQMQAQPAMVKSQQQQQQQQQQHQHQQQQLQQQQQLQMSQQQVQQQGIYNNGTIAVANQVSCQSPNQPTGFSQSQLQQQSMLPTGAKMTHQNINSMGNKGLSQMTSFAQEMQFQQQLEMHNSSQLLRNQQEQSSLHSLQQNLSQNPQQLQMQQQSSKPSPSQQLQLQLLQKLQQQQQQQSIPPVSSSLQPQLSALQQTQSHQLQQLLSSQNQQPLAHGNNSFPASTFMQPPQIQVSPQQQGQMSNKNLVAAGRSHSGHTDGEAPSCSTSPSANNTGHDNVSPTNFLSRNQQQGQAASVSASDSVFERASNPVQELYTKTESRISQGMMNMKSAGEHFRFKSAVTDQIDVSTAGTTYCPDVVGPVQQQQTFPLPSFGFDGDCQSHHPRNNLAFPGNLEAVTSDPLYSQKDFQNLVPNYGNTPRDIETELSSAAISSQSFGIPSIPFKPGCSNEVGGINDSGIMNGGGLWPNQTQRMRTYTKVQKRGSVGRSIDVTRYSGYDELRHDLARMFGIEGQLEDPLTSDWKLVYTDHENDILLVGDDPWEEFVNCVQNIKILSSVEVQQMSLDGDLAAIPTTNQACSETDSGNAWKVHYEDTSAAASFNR
# Chain of UniProt Q9M1R4 (whole entry, looked up): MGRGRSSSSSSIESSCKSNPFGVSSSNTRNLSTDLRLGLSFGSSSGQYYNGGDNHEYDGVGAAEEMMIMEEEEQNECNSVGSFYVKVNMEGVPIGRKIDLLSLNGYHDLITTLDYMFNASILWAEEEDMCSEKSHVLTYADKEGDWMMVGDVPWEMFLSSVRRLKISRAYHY

# Series 1
# Target: UBE2A UBC core domain (UniProt P49459)
# Chain of UniProt P49459 (whole entry, looked up): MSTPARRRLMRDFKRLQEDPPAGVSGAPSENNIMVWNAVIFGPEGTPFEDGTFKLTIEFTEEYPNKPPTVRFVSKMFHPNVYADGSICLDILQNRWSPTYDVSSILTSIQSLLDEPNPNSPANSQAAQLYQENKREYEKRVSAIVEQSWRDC
# Technique: yeast two-hybrid
# Medium: yeast
# Notes: mostly zero background
# Baseline: not given
# Direction: higher = stronger interaction
# B1: RNF38 RING domain (UniProt Q9H0F5); chain PNNHQSEQTLCVVCMCDFESRQLLRVLPCNHEFHAKCVDKWLKANRTCPICRADASEVHRDS
# B2: TRIM24 RING domain (UniProt O15164); chain EAARLNLLDTCAVCHQNIQSRAPKLLPCLHSFCQRCLPAPQRYLMLPAPMLGSAETPPPVPAPGSPVSGSSPFATQVGVIRCPVCSQECAERHII
# B3: NEURL1 RING domain (UniProt O76050); chain VTPGLGQWSDECTICYEHAVDTVIYTCGHMCLCYACGLRLKKALHACCPICRRPIKDIIKT
# B4: DTX4 RING domain (UniProt Q9Y2E6); chain QKVRHPPDEDCTICMERLTAPSGYKGPQPTVKPDLVGKLSRCGHVYHIYCLVAMYNNGNKDGSLQCPTCKTIYGVKTGTQ
# B5: TRIM5 RING domain (UniProt Q9C035); chain ILVNVKEEVTCPICLELLTQPLSLDCGHSFCQACLTANHKKSMLDKGESSCPVCRISYQPENIRP
# B6: TRIM43 RING domain (UniProt Q96BQ3); chain FSHAFQKELTCVICLNYLVDPVTICCGHSFCRPCLCLSWEEAQSPANCPACREPSPKMDFKT
# B7: MKRN1 RING domain (UniProt Q9UHC7); chain FAVQRSKDMVCGICMEVVYEKANPSERRFGILSNCNHTYCLKCIRKWRSAKQFESKIIKSCPECRITSNFVIPSE
Molecule,lacZ reporter activity
B1 (RNF38 RING domain),0
B2 (TRIM24 RING domain),0
B3 (NEURL1 RING domain),0
GAAPGPEAAECLVCSELALLVLFSPCQHRTVCEECARRMKKCIRCQVVVSKKLRPD (MIB2 RING domain (UniProt Q96AX9)),0
QVDKAVFHMQSVKCLKCQEQKRAVLPCQHAALCELCAEGSECPICQPGRAHTLQS (UNK RING domain (UniProt Q9C0B0)),0
B4 (DTX4 RING domain),0
B5 (TRIM5 RING domain),0
B6 (TRIM43 RING domain),0
FQGDVDEDLICPICSGVLEEPVQAPHCEHAFCNACITQWFSQQQTCPVDRSVVTVAHLRP (RNF41 RING domain (UniProt Q9H4P4)),0
B7 (MKRN1 RING domain),0

# Series 2
# Target: HLA class I histocompatibility antigen, A alpha chain, allele A*80:01 (Homo sapiens, UniProt P04439)
# Observed: peptide-MHC binding
# Molecule type: peptide
# Concentration: concentration not given
Molecule,binding
ALGGSCHTT,inactive
HLLCQAFSV,inactive
VTGCASLYV,inactive
LQPSDTLLF,inactive

# Series 3
# Molecule: B8 (IAA12)
# Technique: two-hybrid
# Direction: higher = firmer interaction
# B8: IAA12 (Arabidopsis thaliana, UniProt Q38830); chain MRGVSELEVGKSNLPAESELELGLGLSLGGGAWKERGRILTAKDFPSVGSKRSAESSSHQGASPPRSSQVVGWPPIGLHRMNSLVNNQAMKAARAEEGDGEKKVVKNDELKDVSMKVNPKVQGLGFVKVNMDGVGIGRKVDMRAHSSYENLAQTLEEMFFGMTGTTCREKVKPLRLLDGSSDFVLTYEDKEGDWMLVGDVPWRMFINSVKRLRIMGTSEASGLAPRRQEQKDRQRNNPV
partner,setting,scale,positive tests
"IAA30 (Arabidopsis thaliana, UniProt Q9M1R4)",weak activation fusion,baseline: out of 4 tests,3
"ARF18 482-602 (Arabidopsis thaliana, UniProt Q9C5W9)",,baseline: out of 4 tests,0
"IAA31 (Arabidopsis thaliana, UniProt Q8H174)",,baseline: out of 2 tests,2
"ARF19 948-1086 (Arabidopsis thaliana, UniProt Q8RYC8)",,baseline: out of 4 tests,4
"IAA33 (Arabidopsis thaliana, UniProt Q9FKM7)",,baseline: out of 4 tests,1
"ARF16 570-670 (Arabidopsis thaliana, UniProt Q93YR9)",,baseline: out of 4 tests,0
"ARF7 1030-1164 (Arabidopsis thaliana, UniProt P93022)",,baseline: out of 4 tests,3

# Series 4
# Target: Sal-like protein 4, full length isoform A (SALL4, Homo sapiens, UniProt Q9UJQ4, residues 1-1053)
# Chain of UniProt Q9UJQ4 (whole entry, looked up): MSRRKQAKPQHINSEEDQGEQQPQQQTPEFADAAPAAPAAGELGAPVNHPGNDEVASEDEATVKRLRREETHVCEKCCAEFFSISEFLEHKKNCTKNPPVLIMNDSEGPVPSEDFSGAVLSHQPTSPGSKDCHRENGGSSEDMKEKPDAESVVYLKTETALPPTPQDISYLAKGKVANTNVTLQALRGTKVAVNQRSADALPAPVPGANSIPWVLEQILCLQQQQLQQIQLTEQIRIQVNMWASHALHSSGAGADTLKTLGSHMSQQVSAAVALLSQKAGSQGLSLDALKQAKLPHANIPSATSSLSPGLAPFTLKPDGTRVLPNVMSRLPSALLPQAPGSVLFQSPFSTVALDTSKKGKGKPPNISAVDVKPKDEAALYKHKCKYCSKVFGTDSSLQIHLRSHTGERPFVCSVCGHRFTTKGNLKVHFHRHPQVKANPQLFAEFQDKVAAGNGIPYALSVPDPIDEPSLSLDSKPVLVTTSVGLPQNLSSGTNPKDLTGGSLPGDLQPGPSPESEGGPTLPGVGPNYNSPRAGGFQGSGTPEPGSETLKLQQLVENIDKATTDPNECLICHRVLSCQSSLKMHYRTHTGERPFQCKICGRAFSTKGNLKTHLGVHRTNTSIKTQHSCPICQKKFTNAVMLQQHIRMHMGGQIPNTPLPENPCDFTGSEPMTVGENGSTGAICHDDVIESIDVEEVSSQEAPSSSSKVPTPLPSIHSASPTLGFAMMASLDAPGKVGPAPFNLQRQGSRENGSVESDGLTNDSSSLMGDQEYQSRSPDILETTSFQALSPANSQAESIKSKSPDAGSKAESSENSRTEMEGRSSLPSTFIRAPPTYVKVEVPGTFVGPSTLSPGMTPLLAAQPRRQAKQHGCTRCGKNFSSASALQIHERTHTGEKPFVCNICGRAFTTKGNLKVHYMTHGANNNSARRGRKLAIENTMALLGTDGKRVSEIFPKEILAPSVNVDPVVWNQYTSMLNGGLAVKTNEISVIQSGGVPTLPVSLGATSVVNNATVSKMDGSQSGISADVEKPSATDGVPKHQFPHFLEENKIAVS
# Technique: universal PBM
# Molecule type: double-stranded DNA, one strand shown
# Medium: in vitro
# Concentration: 600 nM
# Notes: 8-mer, flanks averaged, mean of replicates
# Direction: higher = stronger binding
Oligonucleotide,E-score
GATAGGGA,-0.0495
CCACTTGC,-0.145
AGTCGCAC,-0.117
CCGGAGCG,-0.225
AGTGCTGA,-0.151
AGAGCTCT,-0.357
CGAAATTA,0.271
CTGTGTAC,0.0779

# Repeated from above (series 4):
Oligonucleotide,E-score
GATAGGGA,-0.0495
AGTCGCAC,-0.117
CGAAATTA,0.271
